Assay results from different studies.
Compare with care: the assays were run in different laboratories. Several values in a cell are separate wells, animals, samples, runs or records. ± marks the error that the study gave.
KLRK1 with ULBP6: NKG2-D type II integral membrane protein, with ULBP6 (KLRK1, Homo sapiens, UniProt P26718)
Sequence of UniProt P40261 (whole entry, looked up): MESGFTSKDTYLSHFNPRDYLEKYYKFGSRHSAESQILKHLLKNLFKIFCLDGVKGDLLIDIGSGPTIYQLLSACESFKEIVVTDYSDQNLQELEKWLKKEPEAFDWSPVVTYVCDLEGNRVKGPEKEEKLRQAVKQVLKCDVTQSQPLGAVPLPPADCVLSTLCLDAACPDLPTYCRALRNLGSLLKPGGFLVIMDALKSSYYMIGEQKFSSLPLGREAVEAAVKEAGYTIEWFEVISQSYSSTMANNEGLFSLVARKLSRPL
Sequence of UniProt P26718 (whole entry, looked up): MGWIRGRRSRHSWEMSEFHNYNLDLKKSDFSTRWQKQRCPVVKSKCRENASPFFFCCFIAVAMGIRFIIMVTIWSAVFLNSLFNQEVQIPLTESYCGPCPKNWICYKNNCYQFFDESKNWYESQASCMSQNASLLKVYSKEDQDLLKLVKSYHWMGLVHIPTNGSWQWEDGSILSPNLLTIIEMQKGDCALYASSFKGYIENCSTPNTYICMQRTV
Sequence of UniProt Q9HCG7 (whole entry, looked up): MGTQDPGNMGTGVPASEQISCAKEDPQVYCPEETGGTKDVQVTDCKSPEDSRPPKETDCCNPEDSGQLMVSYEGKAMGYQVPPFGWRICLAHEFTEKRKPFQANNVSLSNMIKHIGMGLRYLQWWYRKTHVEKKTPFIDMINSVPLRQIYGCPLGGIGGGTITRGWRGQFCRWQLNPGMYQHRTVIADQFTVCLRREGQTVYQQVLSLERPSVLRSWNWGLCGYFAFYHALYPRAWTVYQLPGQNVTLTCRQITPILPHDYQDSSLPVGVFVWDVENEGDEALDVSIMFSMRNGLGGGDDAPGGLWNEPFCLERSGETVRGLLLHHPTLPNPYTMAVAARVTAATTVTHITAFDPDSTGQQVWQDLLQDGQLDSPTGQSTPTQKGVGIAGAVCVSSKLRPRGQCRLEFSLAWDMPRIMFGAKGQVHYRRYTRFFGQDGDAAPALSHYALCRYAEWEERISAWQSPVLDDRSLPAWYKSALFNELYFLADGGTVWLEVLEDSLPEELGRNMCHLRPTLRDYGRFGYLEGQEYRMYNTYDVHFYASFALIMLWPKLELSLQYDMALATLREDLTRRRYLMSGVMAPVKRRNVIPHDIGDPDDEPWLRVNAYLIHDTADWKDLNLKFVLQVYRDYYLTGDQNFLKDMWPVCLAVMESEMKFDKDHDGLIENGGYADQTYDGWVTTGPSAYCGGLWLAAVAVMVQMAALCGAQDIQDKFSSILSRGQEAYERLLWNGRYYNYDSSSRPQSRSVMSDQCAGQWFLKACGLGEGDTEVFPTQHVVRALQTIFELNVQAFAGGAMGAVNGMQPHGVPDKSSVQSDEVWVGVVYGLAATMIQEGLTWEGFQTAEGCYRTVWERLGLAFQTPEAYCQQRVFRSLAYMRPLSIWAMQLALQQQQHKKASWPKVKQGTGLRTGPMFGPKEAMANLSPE
Sequence of UniProt O15294 (whole entry, looked up): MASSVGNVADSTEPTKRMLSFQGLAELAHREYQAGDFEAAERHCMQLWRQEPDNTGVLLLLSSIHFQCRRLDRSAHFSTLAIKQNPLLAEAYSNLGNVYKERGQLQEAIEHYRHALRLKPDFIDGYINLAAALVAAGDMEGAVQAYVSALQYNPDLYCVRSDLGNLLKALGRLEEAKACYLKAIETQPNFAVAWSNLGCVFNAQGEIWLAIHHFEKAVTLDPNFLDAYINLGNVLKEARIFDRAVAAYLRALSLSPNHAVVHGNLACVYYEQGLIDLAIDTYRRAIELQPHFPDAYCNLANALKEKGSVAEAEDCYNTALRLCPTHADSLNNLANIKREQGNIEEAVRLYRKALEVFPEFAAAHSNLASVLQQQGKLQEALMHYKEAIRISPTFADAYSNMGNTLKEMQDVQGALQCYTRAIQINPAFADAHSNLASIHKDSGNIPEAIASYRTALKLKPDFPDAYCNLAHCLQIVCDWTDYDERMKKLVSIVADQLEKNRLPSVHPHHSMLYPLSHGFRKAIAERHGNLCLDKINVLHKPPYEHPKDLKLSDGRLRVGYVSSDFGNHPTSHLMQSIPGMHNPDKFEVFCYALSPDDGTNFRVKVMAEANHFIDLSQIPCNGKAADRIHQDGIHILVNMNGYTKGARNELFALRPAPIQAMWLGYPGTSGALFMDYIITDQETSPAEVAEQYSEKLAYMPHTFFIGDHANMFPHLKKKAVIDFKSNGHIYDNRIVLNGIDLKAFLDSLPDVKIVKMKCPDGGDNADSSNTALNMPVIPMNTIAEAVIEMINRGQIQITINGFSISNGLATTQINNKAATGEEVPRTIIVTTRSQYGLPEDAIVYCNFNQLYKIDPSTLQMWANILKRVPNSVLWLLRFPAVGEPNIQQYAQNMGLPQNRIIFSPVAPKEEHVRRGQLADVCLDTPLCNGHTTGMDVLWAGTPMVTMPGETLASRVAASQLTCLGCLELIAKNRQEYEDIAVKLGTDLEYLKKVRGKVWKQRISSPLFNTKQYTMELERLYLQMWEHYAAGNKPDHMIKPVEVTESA
Sequence of UniProt P28062 (whole entry, looked up): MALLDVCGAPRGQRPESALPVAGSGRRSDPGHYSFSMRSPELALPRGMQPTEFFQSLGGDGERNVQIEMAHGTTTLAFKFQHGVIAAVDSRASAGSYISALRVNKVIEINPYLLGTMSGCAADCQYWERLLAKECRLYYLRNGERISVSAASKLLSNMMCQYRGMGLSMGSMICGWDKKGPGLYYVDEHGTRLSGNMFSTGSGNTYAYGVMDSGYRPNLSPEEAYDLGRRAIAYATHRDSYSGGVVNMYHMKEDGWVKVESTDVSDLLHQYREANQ
Sequence of UniProt P11309 (whole entry, looked up): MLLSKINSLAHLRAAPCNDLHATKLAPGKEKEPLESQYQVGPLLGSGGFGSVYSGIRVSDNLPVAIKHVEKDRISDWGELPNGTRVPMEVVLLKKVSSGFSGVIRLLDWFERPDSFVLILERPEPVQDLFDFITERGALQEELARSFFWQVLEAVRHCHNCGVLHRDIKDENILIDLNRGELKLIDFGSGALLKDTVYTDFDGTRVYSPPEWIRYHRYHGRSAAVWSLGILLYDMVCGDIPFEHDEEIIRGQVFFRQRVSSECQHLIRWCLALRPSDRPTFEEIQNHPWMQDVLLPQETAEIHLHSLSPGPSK
Sequence of UniProt Q13164 (whole entry, looked up): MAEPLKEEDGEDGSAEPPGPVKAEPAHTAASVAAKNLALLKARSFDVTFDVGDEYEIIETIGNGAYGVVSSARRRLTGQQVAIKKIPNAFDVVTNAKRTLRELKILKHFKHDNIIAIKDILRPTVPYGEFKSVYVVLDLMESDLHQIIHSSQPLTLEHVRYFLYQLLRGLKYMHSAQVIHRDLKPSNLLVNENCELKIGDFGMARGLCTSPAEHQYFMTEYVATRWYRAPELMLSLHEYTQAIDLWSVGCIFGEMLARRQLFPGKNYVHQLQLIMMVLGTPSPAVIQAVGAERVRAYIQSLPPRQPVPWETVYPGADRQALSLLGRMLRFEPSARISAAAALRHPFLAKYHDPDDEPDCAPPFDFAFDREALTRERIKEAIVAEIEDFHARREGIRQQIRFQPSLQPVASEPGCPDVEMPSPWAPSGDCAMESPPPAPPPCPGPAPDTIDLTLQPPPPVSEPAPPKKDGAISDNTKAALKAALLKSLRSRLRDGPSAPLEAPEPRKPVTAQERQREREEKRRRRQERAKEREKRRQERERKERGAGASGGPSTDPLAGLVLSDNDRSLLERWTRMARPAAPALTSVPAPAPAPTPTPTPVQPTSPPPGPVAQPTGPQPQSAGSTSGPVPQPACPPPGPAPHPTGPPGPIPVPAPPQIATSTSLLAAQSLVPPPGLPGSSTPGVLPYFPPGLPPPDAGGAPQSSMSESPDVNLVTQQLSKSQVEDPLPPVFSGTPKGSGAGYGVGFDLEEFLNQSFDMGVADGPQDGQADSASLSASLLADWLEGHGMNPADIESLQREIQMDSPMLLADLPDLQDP
Sequence of UniProt P53350 (whole entry, looked up): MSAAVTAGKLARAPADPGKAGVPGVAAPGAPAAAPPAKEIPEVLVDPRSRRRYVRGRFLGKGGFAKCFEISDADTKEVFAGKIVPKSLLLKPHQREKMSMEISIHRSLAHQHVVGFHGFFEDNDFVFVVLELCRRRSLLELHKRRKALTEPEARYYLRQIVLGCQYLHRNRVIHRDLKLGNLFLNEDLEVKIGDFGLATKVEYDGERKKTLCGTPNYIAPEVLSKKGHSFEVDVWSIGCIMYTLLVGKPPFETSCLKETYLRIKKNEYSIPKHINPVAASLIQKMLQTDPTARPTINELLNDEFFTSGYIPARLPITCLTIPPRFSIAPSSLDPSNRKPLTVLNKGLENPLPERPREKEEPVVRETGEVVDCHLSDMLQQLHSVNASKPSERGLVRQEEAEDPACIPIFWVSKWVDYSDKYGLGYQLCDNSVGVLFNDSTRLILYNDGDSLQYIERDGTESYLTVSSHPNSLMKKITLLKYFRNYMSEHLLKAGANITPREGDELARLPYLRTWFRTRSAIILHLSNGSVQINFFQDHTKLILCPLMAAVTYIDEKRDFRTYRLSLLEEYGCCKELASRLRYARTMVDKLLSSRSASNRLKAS
Sequence of UniProt P47774 (whole entry, looked up): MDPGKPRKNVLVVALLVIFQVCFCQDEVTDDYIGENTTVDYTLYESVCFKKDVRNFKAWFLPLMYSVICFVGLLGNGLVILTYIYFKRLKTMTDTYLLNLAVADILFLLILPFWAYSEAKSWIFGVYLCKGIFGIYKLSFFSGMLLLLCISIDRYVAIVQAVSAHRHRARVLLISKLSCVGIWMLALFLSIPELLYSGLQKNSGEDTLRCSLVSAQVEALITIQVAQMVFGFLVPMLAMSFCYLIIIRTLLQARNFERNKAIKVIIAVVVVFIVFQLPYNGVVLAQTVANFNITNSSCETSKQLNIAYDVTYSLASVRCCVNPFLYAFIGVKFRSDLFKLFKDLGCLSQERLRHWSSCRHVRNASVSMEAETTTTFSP

SMILES | target | assay | test system | conditions | IC50
OC[C@@H]1[C@@H](O)[C@H](O)[C@@H](O)[C@@H]2N[C@H]12 | Beta-glucosidase (GBA2, Homo sapiens, UniProt Q9HCG7) | enzyme activity, inhibitor | – | pH 5.8, with preincubation | 0.014 µM
O=C(CCCOc1ccc(Cl)cc1)N[C@H]1CCOC1=O | lasR (Pseudomonas aeruginosa, UniProt P25084) | reporter gene, antagonist | Escherichia coli, JLD271 with LasR plasmid | together with: OdDHL 2 nM | 0.49 µM
COC(=O)C1CN1S(=O)(=O)c1cccc2ccccc12 (stereo not drawn) | PDIA3 (Homo sapiens, UniProt P30101) | enzyme activity, inhibitor, absorbance | – | pH 7.6 | 93 µM
NC[C@@H]1O[C@H](O[C@H]2[C@@H](O)[C@H](O[C@@H]3[C@@H](O)[C@H](N)C[C@H](N)[C@H]3O[C@H]3O[C@H](CN)[C@@H](O)[C@H](O)[C@H]3N)O[C@@H]2Cn2cc(-c3ccc(-c4cn(C[C@H]5O[C@@H](O[C@@H]6[C@@H](O)[C@H](N)C[C@H](N)[C@H]6O[C@H]6O[C@H](CN)[C@@H](O)[C@H](O)[C@H]6N)[C@H](O)[C@@H]5O[C@H]5O[C@@H](CN)[C@@H](O)[C@H](O)[C@H]5N)nn4)cc3)nn2)[C@H](N)[C@@H](O)[C@@H]1O | HIV-1 TAR RNA | ethidium displacement | – | pH 6.8 | 0.067 µM
N#Cc1cn([C@@H]2O[C@H](CSCC[C@H](N)C(=O)O)[C@@H](O)[C@H]2O)c2ncnc(N)c12 | DNA (cytosine-5)-methyltransferase 3B, with DNMT3L (DNMT3B, Homo sapiens, UniProt Q9UBC3) | inhibitor | – | – | 0.03 ± 0.006 µM
CC[C@H](C)[C@@H]1NC(=O)[C@H](CCCNC(=N)N)NC(=O)[C@H](CCCNC(=N)N)NC(=O)[C@H](C)NC(=O)[C@H](Cc2ccc(O)cc2)NC(=O)CSC[C@@H](C(=O)NCC(N)=O)NC(=O)[C@H]([C@@H](C)CC)NC(=O)[C@H](C(C)C)NC(=O)[C@H](C(C)C)NC(=O)[C@H](CC(C)C)NC(=O)[C@H](CCCNC(=N)N)NC(=O)[C@H](CC(=O)O)NC(=O)[C@H](CCCNC(=N)N)NC(=O)[C@H](Cc2ccccc2)NC(=O)[C@H](C(C)C)NC(=O)[C@H](CC(C)C)NC(=O)[C@H]([C@@H](C)CC)NC1=O | NNMT (Homo sapiens, UniProt P40261) | enzyme activity, inhibitor, mass spectrometry | – | – | 4.96 µM and ~5 µM
CC(=O)N[C@@H](CCCNC(=N)N)C(=O)N[C@@H](Cc1ccc(O)cc1)C(=O)N[C@@H](CCCNC(=N)N)C(=O)N[C@@H](CC(C)C)C(=O)N[C@@H](CCCNC(=N)NC(=O)NCCCCN)C(=O)N[C@@H](Cc1ccc(O)cc1)C(N)=O | NPY4R (Homo sapiens, UniProt P50391) | β-arrestin 1 recruitment, antagonist | HEK293T | together with: 3 nM human pancreatic polypeptide | 6.64 ± 0.78 µM
CNC(=O)C(NC(=O)c1ccccc1-c1ccc(C(F)(F)F)cc1)c1cccc(C(F)(F)F)c1 (stereo not drawn) | KLRK1 with ULBP6 | ligand binding, inhibitor, TR-FRET | HEK293 expressing NKG2D and DAP10 | together with: ULBP6-AF647 | > 20 µM
COc1ccccc1[C@@H](NS(=O)(=O)c1cc2ccc(O)nc2cc1Cl)C(=O)N(CC(=O)NCCn1cc(COCCOCCOCC(=O)N[C@H](C(=O)N2C[C@H](O)C[C@H]2C(=O)NCc2ccc(-c3scnc3C)cc2)C(C)(C)C)nn1)Cc1cccs1 | OGT (Homo sapiens, UniProt O15294) | enzyme activity, inhibitor, fluorescence | – | – | 0.61 µM
Cc1cccc2c1NC(=O)C2=Cc1ccc(-c2cccc(C(=O)N3CCCN(C)CC3)c2)o1 (mixture of isomers) | PIM1 (Homo sapiens, UniProt P11309) | enzyme activity, inhibitor | – | – | 0.0695 µM
CC[N+](CC)(CC)CC | Potassium channel protein kcv, three L70A, one L70Y (A250R, Paramecium bursaria Chlorella virus 1, UniProt Q84568, L70A/L70Y) | – | – | – | 16000 ± 3000 µM
CN(C)C(=O)[C@@H](NC(=O)c1cnccc1-c1ccc(C(F)(F)F)cc1)c1cccc(C(F)(F)F)c1 | KLRK1 with ULBP6 | ligand binding, inhibitor, TR-FRET | HEK293 expressing NKG2D and DAP10 | together with: ULBP6-AF647 | 1.4 ± 0.2 µM
CC[C@H](C)[C@H](NC(=O)[C@H](CC(C)C)NC(=O)[C@@H](N)CC(N)=O)C(=O)N[C@@H](Cc1ccc(O)cc1)C(=O)N[C@@H](CCCNC(=N)N)C(=O)N[C@@H](CC(N)=O)C(=O)N[C@@H](CC(C)C)C(=O)N[C@@H](Cc1c[nH]cn1)C(=O)N[C@@H](CC(C)C)C(=O)O | HLA class I histocompatibility antigen, A alpha chain, allele A*02:01 (Homo sapiens, UniProt P04439) | binding, competitive radioligand binding | – | 48 h, 37 °C, together with: radiolabelled FLPSDYFPSV 1 nM | < 0.2 µM
CC(C)C[C@H](NC(=O)[C@H](CCCNC(=N)N)NC(=O)[C@H](CCC(=O)O)NC(=O)[C@H](CCCCN)NC(=O)[C@H](CCCNC(=N)N)NC(=O)[C@H](CCCCN)NC(=O)[C@H](CCC(=O)O)NC(=O)[C@H](CC(C)C)NC(=O)[C@H](Cc1ccccc1)NC(=O)[C@H](CCCNC(=N)N)NC(=O)[C@H](C)NC(=O)[C@H](CC(C)C)NC(=O)[C@H](CO)NC(=O)[C@]1(C)CCCC=CCCC[C@](C)(NC(=O)[C@@H]2CCCN2C(=O)[C@@H](NC(=O)[C@H](CO)NC(=O)c2ccc3c(c2)C(=O)OC32c3ccc(N(C)C)cc3Oc3cc(N(C)C)ccc32)C(C)C)C(=O)N[C@@H](C)C(=O)N[C@@H](CCCNC(=N)N)C(=O)N[C@@H](CCCCN)C(=O)N1)C(=O)O | Transcription factor MYC3 (MYC3, Arabidopsis thaliana, UniProt Q9FIP9) | JAZ9 peptide binding, inhibitor, AlphaScreen | – | pH 8.0, 25 °C, together with: 50 nM biotin-JAZ9 peptide | 6 ± 1.6 µM
O=C(COc1ccc2c(c1O)C(=O)c1ccccc1C2=O)c1ccccc1 | Gag-Pol polyprotein, reverse transcriptase RNase H (gag-pol, Human immunodeficiency virus 1, UniProt P03366, Y780C) | polymerase-independent RNase H cleavage | – | Y181C reverse transcriptase | > 100 µM
CC[C@@H]1C(=O)N(C)c2cnc(Oc3ccc(C(=O)NCCCC[C@H](NC(C)=O)C(=O)NCCOCCOCC(=O)NCCOCCOCC(=O)NCCOCCOCC(=O)NCCOCCOCC(=O)N4CCC[C@H]4C(=O)N[C@@H](CC(C)C)C(=O)N[C@@H](Cc4cncn4CCCCCCCCc4ccccc4)C(=O)N[C@@H](CO)C(=O)N[C@H](C(N)=O)[C@@H](C)OP(=O)(O)O)cc3OC)nc2N1CC(C)C | PLK1 (Homo sapiens, UniProt P53350) | enzyme activity, inhibitor, FRET | – | – | > 10 µM
CN1CCN(CCOc2c(Cl)cc(C(=O)N[C@@H](Cc3ccccc3)C(=O)O)c(O)c2Cl)CC1 | CPSF3 (Homo sapiens, UniProt Q9UKF6) | enzyme activity, inhibitor, fluorescence | – | – | 54 µM
Cc1ccc2nc(C(F)(F)F)c(C(=O)NCc3cccc(Cl)c3)n2c1 | Cytochrome P450 2C9 (CYP2C9, Homo sapiens, UniProt P11712) | inhibitor | – | – | 3.1 µM
CC[C@H](C)[C@H](NC(=O)[C@H](CC(C)C)NC(=O)[C@@H]1CCCN1C(=O)[C@H](CO)NC(=O)[C@@H](N)CC(C)C)C(=O)N[C@@H](Cc1ccccc1)C(=O)N[C@H](C(=O)N[C@H](C(=O)N[C@H](C(=O)N1CCC[C@H]1C(=O)N[C@@H](CC(=O)O)C(=O)N[C@H](C(=O)O)[C@@H](C)O)[C@@H](C)O)[C@@H](C)O)C(C)C | C-C chemokine receptor type 7, with CCL19 (Ccr7, Mus musculus, UniProt P47774) | ligand binding, inhibitor, flow cytometry | B16 expressing CCR7 | 4 °C, together with: CCL19 | 176 ± 15.6 µM
CCCCCCCCCCCC1N=C(N)N=C(N)N1c1ccc(Cl)cc1 (racemic) | folA (Staphylococcus aureus, UniProt P0A017) | enzyme activity, inhibitor | – | – | 0.6 to 1.7 µM and 0.9 µM
C[C@H](CS)C(=O)Nc1cc(-n2nccn2)cc2c1OCO2 | Metallo-beta-lactamase type 2 (Serratia marcescens, UniProt P52699) | inhibitor | – | 10 min preincubation, together with: FC5 substrate | 4.19 µM
[Cl][Au-][P+](c1ccccc1)(c1ccccc1)c1cc[cH-]c1.[Cl][Au-][P+](c1ccccc1)(c1ccccc1)c1cc[cH-]c1.[Cl][Ti+2][Cl] | MAPK7 (Homo sapiens, UniProt Q13164) | enzyme activity, inhibitor, radiometric | – | – | 3.95 µM
COc1ccc(-c2ccc(OC)c(NC(=O)[C@H](C)CS)c2)nn1 | blaNDM-1 (Klebsiella pneumoniae, UniProt C7C422) | enzyme activity, inhibitor, fluorescence | – | with preincubation | 1.27 µM
CN(C)[C@H]1C[C@@]23CC[C@@]4(O2)C(=CC[C@]2(C)[C@@H](c5ccc6ccncc6c5)CC[C@H]24)C=C3[C@@H](O)[C@@H]1O | CDK19 (Homo sapiens, UniProt Q9BWU1) | kinase activity, inhibitor | – | – | ~0.1 µM
C[C@H]1NC(=O)C[C@@H](C(=O)O)NC(=O)C[C@@H](C(=O)O)NC(=O)[C@H](Cc2ccccc2)N(C)C(=O)[C@H](Cc2c[nH]cn2)NC1=O | Endochitinase B1 (Aspergillus fumigatus, UniProt Q873X9) | enzyme activity, inhibitor, fluorometric | – | 10 min, pH 5.5, 37 °C, together with: 20 µM 4-MU-chitobiose | > 1000 µM
CCN(CC)C(=O)C[C@H](NC(=O)CCc1ccccc1)C(=O)N[C@@H](C)C(=O)NCc1cccc2ccccc12 | Proteasome component C5/PSMB8, beta5i subunit (Homo sapiens, UniProt P20618+P28062) | inhibitor | – | – | 3.75 ± 0.6 µM
CCn1nc(C=Cc2ccccc2)nc2c(=O)n(C)c(=O)nc1-2 | TPR (Trypanosoma brucei brucei, UniProt P39051) | inhibitor, DTNB-coupled colourimetric | – | together with: substrate at Km | 2.6 µM

A few entries again:
SMILES | target | assay | test system | conditions | IC50
[Cl][Au-][P+](c1ccccc1)(c1ccccc1)c1cc[cH-]c1.[Cl][Au-][P+](c1ccccc1)(c1ccccc1)c1cc[cH-]c1.[Cl][Ti+2][Cl] | MAPK7 (Homo sapiens, UniProt Q13164) | enzyme activity, inhibitor, radiometric | – | – | 3.95 µM
CC(=O)N[C@@H](CCCNC(=N)N)C(=O)N[C@@H](Cc1ccc(O)cc1)C(=O)N[C@@H](CCCNC(=N)N)C(=O)N[C@@H](CC(C)C)C(=O)N[C@@H](CCCNC(=N)NC(=O)NCCCCN)C(=O)N[C@@H](Cc1ccc(O)cc1)C(N)=O | NPY4R (Homo sapiens, UniProt P50391) | β-arrestin 1 recruitment, antagonist | HEK293T | together with: 3 nM human pancreatic polypeptide | 6.64 ± 0.78 µM
CC[C@@H]1C(=O)N(C)c2cnc(Oc3ccc(C(=O)NCCCC[C@H](NC(C)=O)C(=O)NCCOCCOCC(=O)NCCOCCOCC(=O)NCCOCCOCC(=O)NCCOCCOCC(=O)N4CCC[C@H]4C(=O)N[C@@H](CC(C)C)C(=O)N[C@@H](Cc4cncn4CCCCCCCCc4ccccc4)C(=O)N[C@@H](CO)C(=O)N[C@H](C(N)=O)[C@@H](C)OP(=O)(O)O)cc3OC)nc2N1CC(C)C | PLK1 (Homo sapiens, UniProt P53350) | enzyme activity, inhibitor, FRET | – | – | > 10 µM
